Measured values from different studies.
Every numbered part comes from another study and shows a few of its results, in no order. Positions count from the first letter of the parent shown.

Series 1
Target: Max-binding protein MNT, bHLH-zipper, MAX partner unstated (MNT, Homo sapiens, UniProt Q99583, residues 220-300)
Technique: protein-binding microarray
Form: double-stranded DNA, one strand shown
Sample: in vitro
Concentration: not given
Notes: k-mer, scored over probes, only values ≥0.25
Direction: higher = stronger binding
Target sequence (chain): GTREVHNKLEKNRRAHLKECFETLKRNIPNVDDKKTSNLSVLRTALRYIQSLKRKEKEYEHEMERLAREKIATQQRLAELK
Oligonucleotide | E-score
CACGAGAA | 0.333
CCACGCCA | 0.348
TGCTAGCA | 0.294
ACCATGCC | 0.333
ATCACGAG | 0.37
GTGGAGCA | 0.271
CACGGTGC | 0.336
ACGCGTCG | 0.326

Series 2
Target: Proto-oncogene tyrosine-protein kinase ROS (ROS1, Homo sapiens, UniProt P08922)
UniProt P08922, sequence (whole entry, looked up): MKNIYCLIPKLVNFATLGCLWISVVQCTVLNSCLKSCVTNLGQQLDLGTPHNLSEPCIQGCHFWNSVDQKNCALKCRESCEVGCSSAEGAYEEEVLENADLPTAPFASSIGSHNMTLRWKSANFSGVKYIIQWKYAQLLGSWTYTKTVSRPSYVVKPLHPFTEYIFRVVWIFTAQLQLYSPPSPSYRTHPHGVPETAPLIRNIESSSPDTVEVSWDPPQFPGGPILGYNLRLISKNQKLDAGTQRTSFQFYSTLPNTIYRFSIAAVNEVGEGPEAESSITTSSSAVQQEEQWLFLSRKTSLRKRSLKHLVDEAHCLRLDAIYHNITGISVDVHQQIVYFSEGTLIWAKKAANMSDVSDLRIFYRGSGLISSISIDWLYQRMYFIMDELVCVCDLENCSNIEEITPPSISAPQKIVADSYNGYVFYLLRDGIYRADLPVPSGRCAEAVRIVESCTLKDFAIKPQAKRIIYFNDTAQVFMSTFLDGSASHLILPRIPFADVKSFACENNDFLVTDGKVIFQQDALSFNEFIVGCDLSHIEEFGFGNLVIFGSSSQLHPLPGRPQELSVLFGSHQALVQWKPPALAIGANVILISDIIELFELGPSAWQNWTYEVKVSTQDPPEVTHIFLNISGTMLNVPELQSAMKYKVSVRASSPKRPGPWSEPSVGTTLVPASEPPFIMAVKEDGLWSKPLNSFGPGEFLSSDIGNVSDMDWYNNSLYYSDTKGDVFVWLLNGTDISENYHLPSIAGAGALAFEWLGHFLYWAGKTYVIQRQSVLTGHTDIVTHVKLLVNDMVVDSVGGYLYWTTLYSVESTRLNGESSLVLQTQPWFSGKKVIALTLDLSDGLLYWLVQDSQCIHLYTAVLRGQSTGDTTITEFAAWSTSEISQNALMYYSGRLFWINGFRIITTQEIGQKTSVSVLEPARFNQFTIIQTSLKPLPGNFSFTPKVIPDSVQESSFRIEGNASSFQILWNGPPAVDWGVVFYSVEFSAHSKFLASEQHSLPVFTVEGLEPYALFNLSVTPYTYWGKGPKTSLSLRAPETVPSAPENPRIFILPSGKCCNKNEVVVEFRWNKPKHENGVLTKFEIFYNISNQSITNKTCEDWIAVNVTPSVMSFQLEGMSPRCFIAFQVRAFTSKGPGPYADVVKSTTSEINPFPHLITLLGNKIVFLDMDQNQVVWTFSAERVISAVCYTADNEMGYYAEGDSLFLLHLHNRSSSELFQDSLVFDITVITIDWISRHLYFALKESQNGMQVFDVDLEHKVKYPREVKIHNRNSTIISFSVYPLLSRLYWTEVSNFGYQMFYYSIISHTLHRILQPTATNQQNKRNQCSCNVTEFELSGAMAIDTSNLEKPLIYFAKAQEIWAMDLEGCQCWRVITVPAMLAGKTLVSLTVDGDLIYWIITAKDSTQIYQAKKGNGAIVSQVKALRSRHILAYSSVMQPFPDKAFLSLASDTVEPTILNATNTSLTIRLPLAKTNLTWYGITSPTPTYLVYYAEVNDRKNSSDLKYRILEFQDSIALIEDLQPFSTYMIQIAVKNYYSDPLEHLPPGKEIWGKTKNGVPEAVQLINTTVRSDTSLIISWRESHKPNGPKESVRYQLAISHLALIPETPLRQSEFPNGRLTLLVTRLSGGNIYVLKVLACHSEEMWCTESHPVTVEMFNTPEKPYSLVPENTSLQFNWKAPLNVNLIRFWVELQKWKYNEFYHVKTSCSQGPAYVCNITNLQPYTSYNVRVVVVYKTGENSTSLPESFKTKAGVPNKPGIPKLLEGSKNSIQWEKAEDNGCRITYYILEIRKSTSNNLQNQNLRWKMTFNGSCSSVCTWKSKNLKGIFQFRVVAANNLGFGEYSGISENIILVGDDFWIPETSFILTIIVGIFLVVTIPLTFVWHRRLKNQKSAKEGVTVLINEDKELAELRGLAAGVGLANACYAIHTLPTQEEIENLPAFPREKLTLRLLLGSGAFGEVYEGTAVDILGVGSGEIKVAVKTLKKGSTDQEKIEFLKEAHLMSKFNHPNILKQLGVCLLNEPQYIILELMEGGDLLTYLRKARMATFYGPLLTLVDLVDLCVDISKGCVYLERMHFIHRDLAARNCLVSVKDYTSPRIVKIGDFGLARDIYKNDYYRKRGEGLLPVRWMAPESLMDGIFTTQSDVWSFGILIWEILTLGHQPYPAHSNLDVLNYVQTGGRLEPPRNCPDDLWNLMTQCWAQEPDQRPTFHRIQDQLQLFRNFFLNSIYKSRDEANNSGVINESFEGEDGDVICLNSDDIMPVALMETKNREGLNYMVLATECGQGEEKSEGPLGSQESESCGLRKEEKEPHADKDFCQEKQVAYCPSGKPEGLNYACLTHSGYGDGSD
Observed: enzyme activity
Mode: inhibitor
Concentration: 0.5 µM
Reference: control
SMILES | remaining activity [%]
C#Cc1cccc(Nc2ncnc3cc(OCCOC)c(OCCOC)cc23)c1 | 99.6
CN(C)c1ccc(C=C2C(=O)Nc3ccccc32)cc1 | 94.9
NCCNc1ncc(C(N)=O)c(Nc2cccc(C(F)(F)F)c2)n1 | 86.6
O=C1NC(=O)C(c2cn(CCCn3ccnc3)c3ccccc23)=C1Nc1ccccc1 | 78.7
Cc1nc(-c2ccccc2)c(-c2ccncc2)o1 | 96
Cn1sc(=O)n(Cc2ccccc2)c1=O | 103
O=C1NC(=O)C(c2cn(CCCO)c3ncccc23)=C1c1cnccn1 | 106

Series 3
Target: CREBZF, bZIP domain (human)
Technique: DHFR protein complementation
Sample: yeast
Notes: single substitutions, most at no-binding floor
Reference: wild-type JUN-FOS pair
Direction: higher = stronger binding
Parent: JUN, bZIP domain (human); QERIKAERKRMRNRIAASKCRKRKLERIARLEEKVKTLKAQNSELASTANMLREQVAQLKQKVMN; partner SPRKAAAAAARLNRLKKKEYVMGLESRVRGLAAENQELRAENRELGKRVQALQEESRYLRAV
Substitution | binding fitness
E54S | -1.4 natural log
A29G | -1.39 natural log
Q41D | -1.48 natural log
T37A | -1.43 natural log
E33H | -1.52 natural log
A29C | -1.45 natural log
T37W | -1.52 natural log
S47Y | -1.5 natural log

Series 4
Target: RNA binding protein fox-1 homolog 2, RRM domain, GST-SBP tag (RBFOX2, Homo sapiens, UniProt O43251-10, residues 100-194)
Technique: RNA Bind-n-Seq
Form: RNA
Sample: in vitro
Concentration: 365 nM
Notes: natural RNA segment, single round, ends assumed
Reference: no-protein control
Direction: higher = stronger binding
Constant ends, left off below: GGGAGUUCUACAGUCCGACGAUC … UGGAAUUCUCGGGUGCCAA
Construct (chain): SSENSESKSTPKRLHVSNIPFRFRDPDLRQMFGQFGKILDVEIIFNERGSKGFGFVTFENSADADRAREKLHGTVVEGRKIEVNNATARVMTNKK
Oligonucleotide | RBNS enrichment (R)
GCCCAGGAGGGCGUGAUCCGAGUGAAGCCCCAGGUCUCAGAGAGCAAGCUGUAGCCAGAGGUACCAGCUUCGCCUGGGGCUUCAAGAACCUCCCAUCUAUCCCCAUUCCU | 0.342
AUUGGUGAGAUGUUUUCCGCUACAGUUAACAUGACAAAUGUCUCAGUGGCAAAAAUCCCCUUUUUGUAAGCCCCCAUAGUCUAGAGGCAGUUUUCUUUUUAAGAAUCAUG | 0.252
UCUAACCUACAGGAUGGAGUAAAACAACUGCUACAGUUCAGCACCUGUUUUAUGUGCCGAAUCACUGUGGGGAAAGGUCAGGAAGGUAUAGUCCUUCAAUAGGAAAUUGU | 0.393
AAUUCAUUCAUUCACUCUGCUCAAGACUCCACUGGGCCAAGAGAUGGAAGAACAAACAAAAAGGACUUUCCAUGUAGCCUUCCUCCAUGUGGCCUAGUGAAACAUGGAUC | 0.22
AGUGGGGCCUGCACACGUGUUCCUGUCAGAGGCAAGGCUCACAUUCCUUGCCAGCACCUCUUUCUCUGCCCAAUUGAGGGGAACAAAAGGGUGUUCACAGAUGGAGCGAG | 0.776
CAGAAAUAUAAUGUCUGGAUCUACUUCAUUCUUACAUCAACAUUCACUUUAAAAUCUAUCGAAGCUCUUUUAACGUAAUGGGUGACAAUGUCACAUGACAGAUGCCAUGA | 0.344
AAGCAAUUCCCAUUGCAGCAGGUUAGAGCGAGAAUCAGACAGAGGGCAAAAACCAAUUCGCUUCUCCCCACGUUCUAAAUGCUGGGGCAUGGCUGUCAGGAGGGCUUCCU | 0.233
GCCUCUAGACACUUGACUUACGAUCGUUAUUCCCCCAAUUCAUCAUAUUUUGUUUGUUAUCACCAGAGAUGCCUGAACUCAGUUAAGCGAGCAAUUGCUAGUUGUCUUGA | 1.11

Repeated from above (series 4):
Oligonucleotide | RBNS enrichment (R)
AAUUCAUUCAUUCACUCUGCUCAAGACUCCACUGGGCCAAGAGAUGGAAGAACAAACAAAAAGGACUUUCCAUGUAGCCUUCCUCCAUGUGGCCUAGUGAAACAUGGAUC | 0.22
AGUGGGGCCUGCACACGUGUUCCUGUCAGAGGCAAGGCUCACAUUCCUUGCCAGCACCUCUUUCUCUGCCCAAUUGAGGGGAACAAAAGGGUGUUCACAGAUGGAGCGAG | 0.776
CAGAAAUAUAAUGUCUGGAUCUACUUCAUUCUUACAUCAACAUUCACUUUAAAAUCUAUCGAAGCUCUUUUAACGUAAUGGGUGACAAUGUCACAUGACAGAUGCCAUGA | 0.344
AAGCAAUUCCCAUUGCAGCAGGUUAGAGCGAGAAUCAGACAGAGGGCAAAAACCAAUUCGCUUCUCCCCACGUUCUAAAUGCUGGGGCAUGGCUGUCAGGAGGGCUUCCU | 0.233
GCCUCUAGACACUUGACUUACGAUCGUUAUUCCCCCAAUUCAUCAUAUUUUGUUUGUUAUCACCAGAGAUGCCUGAACUCAGUUAAGCGAGCAAUUGCUAGUUGUCUUGA | 1.11
